Results collected from several papers.
Each line is one published result; not all experiments were run side by side. “And” joins repeats or separate records; there may be more than shown. ± gives the spread as reported.
Chain of UniProt Q00535 (whole entry, looked up): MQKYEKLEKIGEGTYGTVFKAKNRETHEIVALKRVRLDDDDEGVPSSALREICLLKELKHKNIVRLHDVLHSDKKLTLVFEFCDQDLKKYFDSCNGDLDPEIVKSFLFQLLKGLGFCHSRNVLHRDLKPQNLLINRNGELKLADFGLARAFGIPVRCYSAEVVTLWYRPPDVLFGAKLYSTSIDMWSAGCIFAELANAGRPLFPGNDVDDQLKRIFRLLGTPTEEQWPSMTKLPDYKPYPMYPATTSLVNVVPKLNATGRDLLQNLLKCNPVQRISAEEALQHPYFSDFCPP

CN1CCCNC(=O)c2cccc(c2)C(=O)NCCCN(C)CCCNc2cccc3c2C(=O)c2cccc(c2C3=O)NCCC1 — log2 fold change (SAS; RNA-Seq, item: GSTZ1 mRNA; 1 µM, 6 h; relative to: untreated cells): 1.27
COc1cccc(OC)c1C(=O)N[C@@H]1C(=O)N2[C@@H]1SC(C)(C)[C@@H]2C(=O)O — MIC (Salmonella enterica serovar Typhimurium; 14028, Mueller-Hinton broth; 18 to 20 h, 37 °C): > 128 µM
Cc1nn(-c2cccc(N)c2)c(=O)c2cnc(Nc3ccc(N4CCNCC4)cc3)nc12 — IC50 (Cyclin-dependent kinase 5, with p35 (CDK5, Homo sapiens, UniProt Q00535); enzyme activity, inhibitor): 3630 nM
CC1(C)[C@H](NC(=O)/C(=N\OCC(=O)N2CCC(C(=O)O)CC2)c2csc(N)n2)C(=O)N1OS(=O)(=O)O — MIC (Citrobacter freundii; agar dilution; ATCC 43864, susceptible): 2 µg/mL
CC(C)=CCc1cc(C(=O)/C=C/c2ccc(O)cc2)c(O)cc1O — Km (phase I metabolism, substrate; mouse liver microsomes): 3.78 ± 0.58 µM
Cc1c(CN(C)C(=O)/C=C/c2cnc3c(c2)CC(N)C(=O)N3)oc2ccccc12 (stereo not shown) — MIC (Acinetobacter baumannii; broth microdilution; AR-0033): 32 µg/mL
COC1CN([C@H]2CC[C@H]([C@@]3(C)Oc4c(Cl)cc(C(=O)NCc5c(SC)cc(C)[nH]c5=O)c(C)c4O3)CC2)C1 — log2 fold change (RNA-seq, item: CXCL16 mouse homolog; mouse, HT-1376 xenograft, whole blood; dose not given; relative to: vehicle): 0.817
O=CCNCCOn1c(=O)n(OCCNCCO)c(=O)n(OCCNCCOn2c(=O)n(OCCNCCO)c(=O)n(OCCNCCO)c2=O)c1=O — MIC (Alternaria solani; microbial growth, broth dilution): 16 µg/mL
COc1c(NC(=O)c2ccc(NC(=O)[C@H](Cc3c[nH]nn3)NC(=O)c3ccc(NC(=O)/C(C)=C/c4ccc(O)cc4)cc3)cc2)ccc(C(=O)Nc2ccc(C(=O)O)c(O)c2)c1O — MIC (Mycolicibacterium phlei; DSM 750): 1 µg/mL
CC1C=CC=CC(C)C2C=CC3CC(C)(O)C(Cl)C(C)C3C2C(=O)C(Cl)(Cl)C(=O)C(C)C(=O)O1 (stereo not shown) — MIC (Staphylococcus aureus; MRSA clinical isolate; resistant OXA/CIP/CLI/ERY): 0.05 µg/mL
CCN(CC)CC(=O)Nc1cccc(-n2cc(-c3ccc4ccc(-c5cn(-c6cccc(NC(=O)CN(CC)CC)c6)nn5)cc4c3)nn2)c1 — fold regulation (RCC4; PCR angiogenesis array, item: FGF1; 5 x IC50, 6 h, normoxia; relative to: untreated): -1.52
N=C(N)NCCC[C@@H]1NC(=O)[C@H](CCCNC(=N)N)NC(=O)[C@@H](C(c2ccccc2)c2ccccc2)NC(=O)[C@H](Cc2c[nH]c3ccccc23)NC(=O)[C@@H](C(c2ccccc2)c2ccccc2)NC(=O)[C@@H](CCCNC(=N)N)NC(=O)[C@@H](CCCNC(=N)N)NC1=O — MIC (Candida albicans; SC5314): 16 µg/mL
C[C@@H]1C(=O)O[C@@H](C)/C=C/C=C\[C@@H](C)[C@@H]2C=C[C@@H]3C[C@@]4(C)O[C@H]4[C@@H](C)[C@H]3[C@@H]2C(=O)C(Cl)(Cl)C1=O — MIC (Staphylococcus aureus; MSSA clinical isolate; resistant: DAP): 0.025 µg/mL
COC(=O)[C@]12CS[C@H](c3ccccc3)N1C(=O)/C(=C(\O)C1CCCCC1)C2=O — MIC (Streptomyces; bacterial growth, broth dilution; Mueller-Hinton broth; 24 h, 35 °C): 7.81 µg/mL
CNS(=O)(=O)Nc1nccc(Cc2c(C)c3ccc(Oc4ncccc4F)cc3oc2=O)c1F — IC50 (NCI-H3122; cell viability; 7 days): 194 nM
Nc1ncc(-c2cc(-c3cnn(CC(F)(F)F)c3)ncc2F)nc1C(=O)NC1CNCC(F)C1 (stereo not shown) — remaining binding (PKAC-beta; KINOMEscan competition binding; 1 µM; relative to: DMSO control): 73%
CCOc1c(NC(=O)c2ccc(NC(=O)[C@H](Cc3c[nH]nn3)NC(=O)c3ccc(NC(=O)/C(C)=C/c4ccc(O)cc4)cc3)cc2)ccc(C(=O)Nc2ccc(C(=O)O)c(O)c2OC)c1O — MIC (Mycolicibacterium phlei; DSM 750): 1 µg/mL
O=C1C(=C(O)NC23CC4CC(CC(C4)C2)C3)C(=O)C2(C(=O)OC3CCCCC3)CSC(c3ccccc3)N12 (stereo not shown) — MIC (Streptomyces; bacterial growth, broth dilution; Mueller-Hinton broth; 24 h, 35 °C): 15.6 µg/mL
CCCC[C@H](NC(=O)COCCOCCNC(=O)CN1CCN(CC(=O)O)CCN(CC(=O)O)CC1)C(=O)N[C@H]1CC(=O)NCCCC[C@@H](C(N)=O)NC(=O)[C@H](Cc2c[nH]c3ccccc23)NC(=O)[C@H](CCCNC(=N)N)NC(=O)[C@@H](Cc2ccccc2)NC(=O)[C@H](Cc2c[nH]cn2)NC1=O [technetium-99m labelled] — tissue uptake (C57 mouse, skin; intravenous, 0.037 MBq, 24 h): 0.09 ± 0.02 %ID/g
COC1C=COC2(C)Oc3c(C)c(O)c4c(c3C2=O)C2=NC3(CCN(CC(C)C)CC3)NC2=C(NC(=O)C(C)=CC=CC(C)C(O)C(C)C(O)C(C)C(OC(=O)Nc2cccnn2)C1C)C4=O (stereo not shown) — MIC (Mycobacteroides abscessus; ATCC 19977; single-strain MIC): 90 µg/mL
Cc1ncsc1-c1ccc(C(C)NC(=O)C2CC(O)CN2C(=O)C(NC(=O)CCCCCCCCCCN2CCCC(Nc3ncc(Cl)c(Nc4ccccc4S(=O)(=O)C(C)C)n3)C2)C(C)(C)C)cc1 (stereo not shown) — log2 fold change (22Rv1; RNA-seq, item: ZNF16 mRNA; concentration not given; relative to: DMSO): -1.35
C=C(NC(=O)c1csc(-c2nc3c(cc2O)-c2nc(cs2)C(=O)NC(C(C)O)C(=O)NC(=C(C)OC)c2nc(cs2)C(=O)NC2c4nc(cs4)C(=O)NC(COC(=O)c4c5c6c(cccc6n4O)COC(=O)C(OC4CC(C)(O)C(N(C)C)C(C)O4)C2OC5)c2nc-3cs2)n1)C(N)=O (stereo not shown) — MIC (Staphylococcus aureus; microbial growth, agar dilution; ATCC43300): 0.0156 µg/mL
C=CC(=O)Nc1cccc(Cn2ncc3cnc(Nc4cnn(CCOC)c4)nc32)c1 — percent of control (PAK6 human; binding, KINOMEscan; 100 nM; lower = stronger binding): 98%
CC1(C)[C@H](NC(=O)/C(=N\OC2(C(=O)O)CCCC2)c2csc(N)n2)C(=O)N1OS(=O)(=O)O — MIC (Citrobacter freundii; agar dilution; ATCC 43864, susceptible): 0.25 µg/mL
O=C1/C(=C(\O)C2CCCCC2)C(=O)[C@@]2(C(=O)OC3CCCCC3)CS[C@H](c3ccccc3)N12 — MIC (Streptomyces; bacterial growth, broth dilution; Mueller-Hinton broth; 24 h, 35 °C): 3.91 µg/mL
CCN(CC)CC#CCNc1ccnc2cc(Cl)ccc12 — revertants (Salmonella typhimurium; mini-Ames test; TA98; 62.5 µg/well, with rat liver S9): 11 revertants/well and 8 revertants/well
CC1(C)[C@H](NC(=O)/C(=N\OCCN)c2csc(N)n2)C(=O)N1OS(=O)(=O)O — MIC (Citrobacter freundii; agar dilution; ATCC 43864, susceptible): 1 µg/mL
CC(C)OCCOCc1ccc(OCC(O)CN(N=O)C(C)C)cc1 (stereo not shown) — revertant fold increase (Salmonella typhimurium; Ames test; TA98; 15.8 µg/plate, without metabolic activation; relative to: solvent control): 0.9 fold
COC(=O)C12CSC(c3ccccc3)N1C(=O)C(=C(O)NC13CC4CC(CC(C4)C1)C3)C2=O (stereo not shown) — MIC (Streptomyces; bacterial growth, broth dilution; Mueller-Hinton broth; 24 h, 35 °C): 7.81 µg/mL
CC1(C)[C@H](NC(=O)/C(=N\OCC(=O)N2CCC(C(=O)O)C2)c2nsc(N)n2)C(=O)N1OS(=O)(=O)O (stereo partly shown) — MIC (Citrobacter freundii; agar dilution; ATCC 43864, susceptible): 2 µg/mL
COc1c(NC(=O)c2ccc(NC(=O)c3ccc(NC(=O)[C@H](Cc4c[nH]nn4)NC(=O)c4ccc(NC(=O)/C(C)=C/c5ccc(O)cc5)cc4)cc3)cc2O)ccc(C(=O)O)c1O — MIC (Mycolicibacterium phlei; DSM 750): 2 µg/mL
N=C(N)NCCC[C@@H]1NC(=O)[C@H](CCCNC(=N)N)NC(=O)[C@@H](CCCNC(=N)N)NC(=O)[C@H](C(c2ccccc2)c2ccccc2)NC(=O)[C@H](C(c2ccccc2)c2ccccc2)NC(=O)[C@H](C(c2ccccc2)c2ccccc2)NC(=O)[C@H](CCCNC(=N)N)NC1=O — MIC (Candida albicans; SC5314): 16 µg/mL
CC(C)OC(=O)[C@]12CS[C@H](c3ccccc3)N1C(=O)/C(=C(\O)C1CCCCC1)C2=O — MIC (Streptomyces; bacterial growth, broth dilution; Mueller-Hinton broth; 24 h, 35 °C): 7.81 µg/mL
C#CCNC(=O)C1(O/N=C(\C(=O)N[C@@H]2C(=O)N(OS(=O)(=O)O)C2(C)C)c2csc(N)n2)CC1 — MIC (Citrobacter freundii; agar dilution; ATCC 43864 susceptible): 0.5 µg/mL
O=C1C(=C(O)NC2CCCCC2)C(=O)C2(C(=O)OC3CCCCC3)CSC(c3ccccc3)N12 (stereo not shown) — MIC (Streptomyces; bacterial growth, broth dilution; Mueller-Hinton broth; 24 h, 35 °C): 1.95 µg/mL
COc1cc(C(=O)O)ccc1NC(=O)c1ccc(NC(=O)c2ccc(NC(=O)[C@H](Cc3c[nH]nn3)NC(=O)c3ccc(NC(=O)/C(C)=C/c4ccc(O)cc4)cc3)cc2)c(OC)c1O — MIC (Mycolicibacterium phlei; DSM 750): 2 µg/mL
O=C1/C(=C(\O)C2CCCCC2)C(=O)[C@@]2(C(=O)OCc3ccccc3)CS[C@H](c3ccccc3)N12 — MIC (Streptomyces; bacterial growth, broth dilution; Mueller-Hinton broth; 24 h, 35 °C): 3.91 µg/mL
CC1(C)[C@H](NC(=O)/C(=N\OC2(C(=O)O)CC2)c2nsc(N)n2)C(=O)N1OS(=O)(=O)O — MIC (Citrobacter freundii; agar dilution; ATCC 43864, susceptible): 0.25 µg/mL
CC/C(O)=C1/C(=O)N2[C@@H](c3ccccc3)SC[C@]2(C(=O)OCc2ccccc2)C1=O — MIC (Streptomyces; bacterial growth, broth dilution; Mueller-Hinton broth; 24 h, 35 °C): 62.5 µg/mL
COc1cc(C(=O)Nc2ccc(C(=O)O)c(O)c2)ccc1NC(=O)c1ccc(NC(=O)[C@H](Cc2c[nH]nn2)NC(=O)c2ccc(NC(=O)/C(C)=C/c3ccc(O)cc3)cc2)cc1 — MIC (Mycolicibacterium phlei; DSM 750): 4 µg/mL

Some of these lines once more:
CCOc1c(NC(=O)c2ccc(NC(=O)[C@H](Cc3c[nH]nn3)NC(=O)c3ccc(NC(=O)/C(C)=C/c4ccc(O)cc4)cc3)cc2)ccc(C(=O)Nc2ccc(C(=O)O)c(O)c2OC)c1O — MIC (Mycolicibacterium phlei; DSM 750): 1 µg/mL
O=C1C(=C(O)NC23CC4CC(CC(C4)C2)C3)C(=O)C2(C(=O)OC3CCCCC3)CSC(c3ccccc3)N12 (stereo not shown) — MIC (Streptomyces; bacterial growth, broth dilution; Mueller-Hinton broth; 24 h, 35 °C): 15.6 µg/mL
CCCC[C@H](NC(=O)COCCOCCNC(=O)CN1CCN(CC(=O)O)CCN(CC(=O)O)CC1)C(=O)N[C@H]1CC(=O)NCCCC[C@@H](C(N)=O)NC(=O)[C@H](Cc2c[nH]c3ccccc23)NC(=O)[C@H](CCCNC(=N)N)NC(=O)[C@@H](Cc2ccccc2)NC(=O)[C@H](Cc2c[nH]cn2)NC1=O [technetium-99m labelled] — tissue uptake (C57 mouse, skin; intravenous, 0.037 MBq, 24 h): 0.09 ± 0.02 %ID/g
COC1C=COC2(C)Oc3c(C)c(O)c4c(c3C2=O)C2=NC3(CCN(CC(C)C)CC3)NC2=C(NC(=O)C(C)=CC=CC(C)C(O)C(C)C(O)C(C)C(OC(=O)Nc2cccnn2)C1C)C4=O (stereo not shown) — MIC (Mycobacteroides abscessus; ATCC 19977; single-strain MIC): 90 µg/mL
Cc1ncsc1-c1ccc(C(C)NC(=O)C2CC(O)CN2C(=O)C(NC(=O)CCCCCCCCCCN2CCCC(Nc3ncc(Cl)c(Nc4ccccc4S(=O)(=O)C(C)C)n3)C2)C(C)(C)C)cc1 (stereo not shown) — log2 fold change (22Rv1; RNA-seq, item: ZNF16 mRNA; concentration not given; relative to: DMSO): -1.35
